Assay results pooled from the literature.
Numbers after ± are the reported error.

Molecule = CS/C(S)=N/CCCC[S+](C)[O-] (racemic); assay = RT-PCR, measured: Alad; system = rat, liver; conditions = oral gavage, 200 mg/kg, 96 h, dosed for four days; how to read = relative to: vehicle; endpoint = mRNA fold change; result = 0.553
Molecule = COc1ccc(Cl)cc1C(=O)NCCc1ccc(S(=O)(=O)NC(=O)NC2CCCCC2)cc1; system = STZ-induced diabetic rat, liver; conditions = oral, 0.5 mg/kg, day 28; endpoint = catalase activity; result = 39.1 ± 2.11 U/mg protein
Molecule = NC(=O)[C@H](CCC(=O)O)NC(=O)[C@H](CCC(=O)O)NC(=O)[C@H](Cc1cc(-c2ccc(-c3cccc(Cl)c3)cc2)no1)CP(=O)(O)c1ccc(Br)cc1; assay = measured: PCNA; system = high-fat-fed apoE-knockout mice, brachiocephalic plaque; conditions = dose not given; endpoint = proliferating macrophages; result = 23.7 ± 4%
Molecule = NNC1=NC(=O)C(=C2c3ccccc3-c3nc4cc(F)ccc4nc32)S1; system = mouse, STZ-induced diabetes; conditions = oral, 25 mg/kg, day 3; endpoint = blood glucose; result = 386 ± 61.2 mg/dL
Molecule = O=C1CCc2ccc(OCc3nnc(SCc4ccccc4)o3)cc2N1; assay = forced swimming test; system = mice; conditions = 40 mg/kg, 0.5 h; how to read = relative to: control; endpoint = immobility duration decrease; result = 17.8%
Molecule = neuropeptide Y; system = Sprague Dawley rat, urethane-anaesthetised; conditions = intravenous, 5 nmol; endpoint = heart rate response onset time; result = 27 ± 5 s
Molecule = Neuropeptide Y; system = wild-type mouse, liver; conditions = dose not given; how to read = relative to: untreated; endpoint = Col1a1 mRNA level; result = increased
Molecule = CC(C)C[C@H](NC(=O)[C@H](CO)NC(=O)[C@H](CCCNC(=N)N)NC(=O)[C@H](CC(=O)O)NC(=O)[C@H](CCC(=O)O)NC(=O)[C@H](C)NC(=O)[C@@H]1CCCN1C(=O)[C@H](C)NC(=O)[C@H](CCC(=O)O)NC(=O)[C@@H]1CCCN1C(=O)[C@@H]1CCCN1)C(N)=O; assay = HPLC-EC; system = rat F344, unilateral 6-OHDA lesion, contralateral striatum, wet tissue; conditions = intranasal, 300 µg daily, 5 weeks post lesion; endpoint = dopamine level; result = 12300 ± 555 ng/g
Molecule = COc1ccc2c(c1)c(CC(=O)O)c(C)n2C(=O)c1ccc(Cl)cc1; assay = multiplex bead immunoassay, measured: MIP1-α; system = CD-1 mice, serum; conditions = ip, 20 mg/kg, three-injection regimen, together with: LPS 3 mg/kg; endpoint = cytokine level; result = 112 ± 29.2 pg/mL
Molecule = DWFKAFYDKVAEKFKEAF (N-acetyl, C-amide); assay = monocyte chemotactic activity; system = peptide, human aortic endothelial cells, female apoE-null mice; conditions = retro-orbital, 100 µg 3 times weekly for 15 days; how to read = relative to: human LDL; endpoint = plasma inflammatory index; result = decreased
